Assay results gathered from unrelated publications.
Several values in a cell are separate wells, animals, samples, runs or records. Numbers after ± are the reported error.

`Cc1nc2cccc(OCC(C)(C)C(=O)NC(C)C)c2c(N)c1C(=O)O` has a Cmax of 15.9 ng/mL (male Sprague-Dawley rat, plasma; dietary, 60 mg/kg/day, day 7).
With `Cc1cc(Nc2ncc(Cl)c(Nc3ccccc3S(=O)(=O)C(C)C)n2)c(OC(C)C)cc1C1CCNCC1` the Tss,max was 6 h and 8.1 h (measured: total drug; human, plasma; oral, 750 mg/day).
`CCc1ccc(Cc2ccc3c(c2)[C@]2(OC3)O[C@H](CO)[C@@H](O)[C@H](O)[C@H]2O)cc1` gave a tissue/plasma ratio of 1360 ± 513 (Wistar rat, male, small intestine; oral, dose not given, 1 h; baseline: small intestine over plasma concentration).
`CC(C)C[C@H](NC(=O)[C@H](CC(C)C)NC(=O)[C@@H](Cc1c[nH]c2ccccc12)NC(=O)[C@H](Cc1ccccc1)NC(=O)[C@@H](NC(=O)[C@@H](N)CCCCN)[C@@H](c1ccccc1)c1c[nH]c2ccccc12)C(N)=O` gave an HPLC retention of 54.7 %B (RP-HPLC Jupiter Proteo; acetonitrile/water TFA gradient).
For `CC[C@H](C)[C@H](NC(=O)CNC(=O)[C@H](Cc1ccccc1)NC(=O)[C@H](Cc1ccccc1)NC(=O)[C@H](CCCNC(=N)N)NC(=O)[C@H](CCCNC(=N)N)NC(C)=O)C(=O)N[C@@]1(C)CCCC=CCCC[C@@](C)(C(=O)N[C@@H](CC(C)C)C(=O)N[C@@H](CCCCN)C(=O)N[C@H](C(=O)N[C@@H](CCC(=O)O)C(=O)N[C@@H](CCC(=O)O)C(=O)NCC(=O)N[C@@H](CC(N)=O)C(N)=O)[C@@H](C)O)NC(=O)[C@H](CC(N)=O)NC(=O)[C@H]([C@@H](C)O)NC(=O)[C@H](CC(C)C)NC1=O`, the α-helicity was 33.8% (circular dichroism; PBS with 50% trifluoroethanol; 0.3 mg/mL, pH 7.4, 25 °C).
For `O=C(/C=C/c1cccc(S(=O)(=O)Nc2ccccc2)c1)NO`, the clearance was 542 mL/min/m² (human mild liver dysfunction, plasma; intravenous, 400 mg/m^2, 30 min infusion, cycle 1 day -7).
For `[2H]C([2H])([2H])Oc1cc2c(cc1OC([2H])([2H])[2H])C1CC(=O)C(CC(C)C)CN1CC2` (stereo not drawn), the dose-normalized AUC(0-t) was 5.2 ng·h/mL (measured: deuterated β-HTBZ; healthy human volunteers, plasma; oral, 12 mg single dose, standard meal).
`CC[C@H](C)[C@@H]1NC(=O)[C@H](Cc2ccc(O)cc2)NC(=O)[C@@H](N)CSSC[C@@H](C(=O)N2CCC[C@H]2C(=O)N[C@@H](CC(C)C)C(=O)NCC(N)=O)NC(=O)[C@H](CC(N)=O)NC(=O)[C@H](CCC(N)=O)NC1=O`: “AUC above baseline” 37.9 ± 12.1 pg·30 min/sample (microdialysis, radioimmunoassay; C57BL/6J male mice, wild type, amygdala extracellular fluid; intraperitoneal, 12 µg total, incremental area over baseline).
The AUC(0-inf) of `CCCOc1ccc([C@H]2CNC(=O)N2c2ccc3[nH]cnc3c2)cc1` is reported as 174 ng·h/mL (human, plasma; oral, 30 mg, single dose, fasted).
`CO[C@@H]1[C@H](O)[C@@H](CO)O[C@H]1n1ccc(=O)[nH]c1=O` has a terminal half-life of 299 min (UHPLC-MS; male CD-1 mice, plasma; intravenous, 1 mg/kg, from 4 h postdose).
`COc1ccc2cc3[n+](cc2c1OC)CCc1cc2c(cc1-3)OCO2` has a measured concentration of 639 ± 12.4 ng/mL (rat plasma QC sample; 640 ng/mL nominal, 24 h, high QC level autosampler stability).
For `CCCC[C@H](NC(C)=O)C(=O)N[C@H]1CCC(=O)NC[C@@H](C(=O)N[C@@H](Cc2c[nH]c3ccccc23)C(N)=O)NC(=O)[C@H](CCCNC(=N)N)NC(=O)[C@@H](Cc2ccccc2)NC(=O)[C@H](Cc2c[nH]cn2)NC1=O`, the AUC(0-t) was 1480 ng·h/mL (CD Sprague-Dawley rat, female, plasma; subcutaneous, 5.0 mg/kg/day, day 14, truncated curve, 3 points).
`C[C@@H](O)[C@H]1C(=O)N2C(C(=O)O)=C(S[C@@H]3CN[C@H](C(=O)N(C)C)C3)[C@H](C)[C@H]12` — result for “time above MIC”: 57% (microdialysis; pig, Danish Landrace, cancellous bone; intravenous, 1000 mg over 10 min, 450 min dosing interval, together with: 0.25 µg/mL MIC; baseline: dosing interval).
`COc1ccc(-c2cc(=O)c3cc(OC)c(OC)c(OC)c3o2)cc1OC` — result for “tissue to peel content ratio”: 65.9% (C57BL/6 mouse, male, feces; oral, 1% w/w in diet, 6 weeks, orange peel extract diet; baseline: content in orange peel).
`CC(C)=CCC[C@](C)(O[C@@H]1O[C@H](CO)[C@@H](O)[C@H](O)[C@H]1O)[C@H]1CC[C@]2(C)[C@@H]1[C@H](O)C[C@@H]1[C@@]3(C)CC[C@H](O[C@@H]4O[C@H](CO)[C@@H](O)[C@H](O)[C@H]4O[C@@H]4O[C@H](CO)[C@@H](O)[C@H](O)[C@H]4O)C(C)(C)[C@@H]3CC[C@]12C` — result for “post-preparative stability accuracy”: 103 ± 8.5% (rat, extracted tissue homogenate QC samples; 0.2 µg/mL, 24 h, 15 °C, autosampler).
Under “change in QTcI”, `COc1c(N2C[C@@H]3CCCN[C@@H]3C2)c(F)cc2c(=O)c(C(=O)O)cn(C3CC3)c12` is recorded as 9.4 ms (healthy human; oral, 400 mg single dose, 1.5 to 3 h; baseline: baseline, time-matched).
For `FC(F)(F)c1cccc(Nc2ncnc3ccccc23)c1`, the logP was 1.38 (potentiometric titration; 1-octanol/water, 0.15 M KCl; ionic species, initial protocol).
For `CCN(CC)CCNC(=O)c1c(C)[nH]c(/C=C2\C(=O)Nc3ccc(F)cc32)c1C`, “maximum trough plasma concentration” read 50.4 ng/mL (human, plasma; oral, 15 mg/m2, day 7).
Under “total body clearance”, `colistin methanesulfonate` is recorded as 2.52 ± 1.64 mL/min/kg (one-compartment PK model; rat; i.p., 20 mg/kg colistin base activity).
`CS(=O)(=O)Nc1ccc(C(=O)O[C@@H](Cc2c(Cl)c[n+]([O-])cc2Cl)c2ccc(OC(F)F)c(OCC3CC3)c2)cc1OCC1CC1` gave a Cmax of 0.41 ng/mL (human, plasma; inhaled, 300 µg once daily, day 7, single-dose dry powder inhaler).
For `O=C(CCCCCCC(=O)Nc1ccccc1)NO`, the AUC(0-7 h) was 5.82 µM·h (patients, serum; oral, 400 mg, cycle 1 day 2, together with: flavopiridol 30+30 mg/m2).
For `CCCC[C@@H]1NC(=O)[C@@H](NC(=O)[C@H](CCC(=O)O)NC(=O)CNC(=O)CN2CCN(CC(=O)O)CCN(CC(=O)O)CCN(CC(=O)O)CC2)CCCCNC(=O)C[C@@H](C(N)=O)NC(=O)[C@H](C(C)C)NC(=O)[C@@H]2CCCN2C(=O)[C@H](CCCNC(=N)N)NC(=O)CNC(=O)[C@H](Cc2c[nH]c3ccccc23)NC(=O)[C@H](CCCNC(=N)N)NC(=O)[C@@H](Cc2ccccc2)NC(=O)[C@H](Cc2c[nH]cn2)NC(=O)[C@H](CCC(=O)O)NC1=O` [indium-111 labelled], the tissue uptake was 0.03 ± 0.01 %ID/g (C57 mice, B16/F10 lung metastatic melanoma, bone; intravenous, 0.037 MBq, 24 h).
`O=C1CN(/N=C/c2ccc(-c3ccc([N+](=O)[O-])cc3)o2)C(O)=N1`: “hepatocyte necrosis score” 0 (Sprague-Dawley rat, male, liver; oral, 100 mg/kg, 6 h, single low dose; direction not given).
`COc1cc2c(cc1OC)[C@@H]1Cc3ccc(OC)c(OC)c3CN1CC2` gave a measured concentration of 2.01 ± 0.11 ng/mL (rat plasma QC sample; 2 ng/mL nominal, 24 h, low QC level autosampler stability).
`Cc1cnc(NC(=O)C2=C(O)c3ccccc3S(=O)(=O)N2C)s1` — result for “hepatocyte vacuolization score”: 0 (Sprague-Dawley rat, male, liver; oral, 0.4 mg/kg, 6 h, single low dose; direction not given).
With `COc1cc(OC)c(/C=C/S(=O)(=O)Cc2ccc(OC)c(NCC(=O)O)c2)c(OC)c1` the Vss/F was 439 ± 513 L (cancer patients, phase I, plasma; oral, 70 mg twice daily, day 1 cycle 1).
Under “brain uptake ratio”, `COc1cc(/C=C/C(=O)CC(=O)/C=C/c2ccc(O)c(OC)c2)ccc1O` is recorded as 6.78 (I-125 label; C57BL/6J mouse, hippocampus; intranasal vs intraperitoneal, 10 µg/mouse IN, 100 µg/mouse IP, 8 h; baseline: intranasal over intraperitoneal).
The clearance of `CC(=O)O[C@H]1C(=O)[C@@]2(C)[C@H]([C@H](OC(=O)c3ccccc3)[C@]3(O)C[C@H](OC(=O)[C@H](O)[C@@H](NC(=O)c4ccccc4)c4ccccc4)C(C)=C1C3(C)C)[C@]1(OC(C)=O)CO[C@@H]1C[C@@H]2O` is reported as 14.4 ± 1.36 L/h/m² (noncompartmental analysis; human, plasma; intravenous, 80 mg/m^2, day 8, DL2 geometric mean, together with: onalespib 150 mg/m^2).
For `CC(=O)O[C@H]1C(=O)[C@@]2(C)[C@H]([C@H](OC(=O)c3ccccc3)[C@]3(O)C[C@H](OC(=O)[C@H](O)[C@@H](NC(=O)c4ccccc4)c4ccccc4)C(C)=C1C3(C)C)[C@]1(OC(C)=O)CO[C@@H]1C[C@@H]2O`, the kinetic solubility was 1 µM (phosphate buffered saline; 24 h, pH 7.4, 1% DMSO).
`CNC(=O)c1ccc(-c2cnc3ncc(Cc4ccc5ncccc5c4)n3n2)cc1F` has an AUC(0-inf) of 5700 ng·h/mL (human moderate hepatic impairment; oral, 200 mg single dose, adjusted geometric mean).
`CC(C)=CCC[C@](C)(O[C@@H]1O[C@H](CO)[C@@H](O)[C@H](O)[C@H]1O)[C@H]1CC[C@]2(C)[C@@H]1[C@H](O)C[C@@H]1[C@@]3(C)CC[C@H](O[C@@H]4O[C@H](CO)[C@@H](O)[C@H](O)[C@H]4O[C@@H]4O[C@H](CO)[C@@H](O)[C@H](O)[C@H]4O)C(C)(C)[C@@H]3CC[C@]12C` has an AUC of 8970 ± 380 ng·h/mL (Sprague-Dawley rat, plasma; oral, 200 mg/kg ginseng extract, after control diet 2 weeks).
`Cc1[nH]c(=O)c(CNC(=O)c2ccc(Cl)nc2)c2c1CCCC2` has a kinetic solubility of 213 µg/mL (U-HPLC; 20% DMSO in water).
`CC(C)[C@@H](CS(=O)(=O)C(C)C)N1C(=O)[C@@](C)(CC(=O)O)C[C@H](c2cccc(Cl)c2)[C@H]1c1ccc(Cl)cc1` has an AUC(0-24) of 1790 ng·h/mL (healthy human; oral, 60 mg single dose, new tablet, fed).
`CC(=O)NCCCC[C@H](NC(=O)[C@@H](NC(C)=O)C(C)C)C(=O)N[C@@H](CC(C)C)C(=O)NC(C)(C)C(=O)N[C@H](C(=O)N[C@@H](CCCCNC(C)=O)C(=O)N[C@@H](CC(C)C)C(N)=O)C(C)C` has a helicity of 53% (far-UV circular dichroism; trifluoroethanol; 100 µM, 25 °C).
With `CC(C)C[C@H](NC(=O)CNC(=O)c1cc(Cl)ccc1Cl)B(O)O` the unbound fraction was 0.0093 ± 0.0037 (rapid equilibrium dialysis; moderate hepatic impairment patients, plasma; 3 h).
`CS/C(S)=N/CCCC[S+](C)[O-]` (racemic) — result for “mRNA fold change”: 1.23 (RT-PCR, measured: Cyp19a1; rat, colon; oral gavage, 200 mg/kg, dosed for four days; baseline: vehicle).

For quick reference, copied from above:
The AUC(0-inf) of `CCCOc1ccc([C@H]2CNC(=O)N2c2ccc3[nH]cnc3c2)cc1` is reported as 174 ng·h/mL (human, plasma; oral, 30 mg, single dose, fasted).
Under “total body clearance”, `colistin methanesulfonate` is recorded as 2.52 ± 1.64 mL/min/kg (one-compartment PK model; rat; i.p., 20 mg/kg colistin base activity).
`CS/C(S)=N/CCCC[S+](C)[O-]` (racemic) — result for “mRNA fold change”: 1.23 (RT-PCR, measured: Cyp19a1; rat, colon; oral gavage, 200 mg/kg, dosed for four days; baseline: vehicle).
`CC(C)[C@@H](CS(=O)(=O)C(C)C)N1C(=O)[C@@](C)(CC(=O)O)C[C@H](c2cccc(Cl)c2)[C@H]1c1ccc(Cl)cc1` has an AUC(0-24) of 1790 ng·h/mL (healthy human; oral, 60 mg single dose, new tablet, fed).
`CC(C)=CCC[C@](C)(O[C@@H]1O[C@H](CO)[C@@H](O)[C@H](O)[C@H]1O)[C@H]1CC[C@]2(C)[C@@H]1[C@H](O)C[C@@H]1[C@@]3(C)CC[C@H](O[C@@H]4O[C@H](CO)[C@@H](O)[C@H](O)[C@H]4O[C@@H]4O[C@H](CO)[C@@H](O)[C@H](O)[C@H]4O)C(C)(C)[C@@H]3CC[C@]12C` — result for “post-preparative stability accuracy”: 103 ± 8.5% (rat, extracted tissue homogenate QC samples; 0.2 µg/mL, 24 h, 15 °C, autosampler).
